Assay results pooled from the literature.
Numbered parts are unrelated; each lists some results of a single study.

Block 1 — technique: aptamer microarray, sandwich; form: DNA with 2'F-ANA; matrix: in vitro; tested at: 200 nM; added: Cy3 exosite-II aptamer, 400 nM; reading: higher = stronger binding; oligonucleotide: GGTTGGTGTGGTTGG
Target: Prothrombin, mature alpha-thrombin (F2, Homo sapiens, UniProt P00734)
Notes: whole 15-mer aptamer, many near background
Modification | mean fluorescence intensity [a.u.]
2'F-ANA at 2 3 4 7 | 758
2'F-ANA at 1 3 5 6 9 10 11 14 15 | 59.3
2'F-ANA at 1 4 5 6 7 8 9 10 13 | 50
2'F-ANA at 1 8 9 13 14 15 | 69.1
2'F-ANA at 2 3 4 6 7 9 11 12 15 | 586

Block 2 — technique: RNA Bind-n-Seq; form: RNA; matrix: in vitro; tested at: 365 nM; baseline: no-protein control; reading: higher = stronger binding
Target: RNA binding protein fox-1 homolog 2, RRM domain, GST-SBP tag (RBFOX2, Homo sapiens, UniProt O43251-10, residues 100-194)
Notes: natural RNA segment, single round, ends assumed
Constant ends, left off below: GGGAGUUCUACAGUCCGACGAUC … UGGAAUUCUCGGGUGCCAA
Residues (chain): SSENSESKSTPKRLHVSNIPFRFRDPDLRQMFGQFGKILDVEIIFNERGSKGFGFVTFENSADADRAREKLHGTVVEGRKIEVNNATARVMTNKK
Oligonucleotide | RBNS enrichment (R)
GGCUCAGGCCUUGGACAGUCCAACAUUAAAGUCAACAUGCUGAUCUCUCCAUUCCUGGUUCAGGGUUAGGGUCCUGAGAGGCUGGCUCGGCACUACUCCGAGGGUCCCUC | 0.229
AUUCUGACCCUCGACACCUGAGAGAACCCUAGAAGGACAUUAUUAGCUUGCUGUCAUUUCUGAACCCAGGAUCUGUCAUCAAAUGAAACAUGUUUAAAAAGUGACUCUGA | 0.44
ACUACACUGUUCCUCGUAUGUGAAGGAGGCAGUGCUGACUCCGUGAGUGUGAGACACGUGCUUUGAACUGCUUUUCUAUUCAUGGAGCACUCCAUAGUCUCAAACUGUCC | 0.438
GGGUUGGAAUGUGGAACUGCAGCCUCAGCCCAUCUGGCAGAGUCCCAGGAACUCGGAGACUGGCACAGCUGCUUUGUCUGCCAGUGCCGUGUGUUGUCAUGUCACUCACC | 0.341
CAACAGCAGGGACUGAGACCUUUCUCUGUGCCACUCUCCUCACUGGGGCUCUGCCAUGUUACACUAAUUUGAAUAAGCUCUCCCUUUUUCUGUAGAGUUCCCAGCCUCAG | 0.574
AAUUACAAGCUGACAGUGUACAAUGUUCCAACAGAAAUAUUAUCAUAACAUGCCUUUUUUGUAUCAAAUGUACUAAGACUUGCCUAUAUAUAGUGCCACUGUGCCUUCUC | 0.274
UUAAGUAUAUUGCUGGAGAGAGACUAUCCCACCACCUAUACAUCUACAAAGAUAUAUGUCUAAAGUUGGAAAAUCAACUUCUGCUUUCUCAGAAUGGGAGACCGAGCGCA | 24.9

Block 3 — technique: competition protein-binding microarray; form: double-stranded DNA, one strand shown; matrix: in vitro; tested at: 2 µM; added: Cbf1 competitor, 0.05 µM; reading: higher = stronger binding; constant ends, left off below: … GTCTTGATTCGCTTGACGCTGCTG
Target: Phosphate system positive regulatory protein PHO4, full length, GST-tagged (PHO4, Saccharomyces cerevisiae, UniProt P07270, residues 1-312)
Notes: whole 60-bp probe, lowest competitor level
Construct (chain): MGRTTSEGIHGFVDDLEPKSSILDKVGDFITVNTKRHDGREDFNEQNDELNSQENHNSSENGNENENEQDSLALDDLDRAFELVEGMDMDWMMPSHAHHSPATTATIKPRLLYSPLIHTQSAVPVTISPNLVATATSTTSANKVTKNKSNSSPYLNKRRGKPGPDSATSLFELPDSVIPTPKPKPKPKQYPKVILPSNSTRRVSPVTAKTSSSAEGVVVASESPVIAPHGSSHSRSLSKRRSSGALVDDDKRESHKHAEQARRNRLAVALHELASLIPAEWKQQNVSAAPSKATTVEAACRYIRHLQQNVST
Oligonucleotide | fluorescence intensity [a.u.]
AACGAAGAAAACGGCCACGTTAAACACTTTGTTAGG | 7170
GGAGATAGCCTTTTGAGCGTGATGGCTCTTTCTATA | 4590
CAAACAACAATAATCCACGTGCTTTTCGCGTTTTTT | 17000
AGAATTGGAAACCATCACGTACTCCGCCACCAGCAA | 5430
ACTTGAGTCAAAAGGCATGTGCGCCTCTTGTTATCT | 12400

Other studies, line by line
Molecule | target | assay | test system | conditions | how to read | measurement | value
PhoQ, residues 284 288 289 292 302 303 HSYLQF | PhoP, residues 12 14 15 18 19 NIMAP (Escherichia coli, UniProt P23836) | Sort-seq, measured: YFP reporter | E. coli | PhoQ-PhoP variant library, added: 10 µM Mg2+ | baseline: high Mg2+ state, higher = stronger signaling | fold induction | 1.62

Some of these lines once more (block 1):
Modification | mean fluorescence intensity [a.u.]
2'F-ANA at 1 4 5 6 7 8 9 10 13 | 50
2'F-ANA at 2 3 4 7 | 758
